Measured values from different studies.
Protocols differ between the studies behind these lines. Several values in a cell are separate wells, animals, samples, runs or records. ± marks the error that the study gave.

SMILES | test | system | conditions | scale | endpoint | result
CN1CCN(C(=S)N/N=C/c2ccccc2O)CC1 | – | plasma | intravenous, 30 mg/kg | – | AUC(0-t) | 2960 ± 369 ng·h/mL
COc1cc(-c2nc3ccccc3s2)cc(CN2CCN(CC(=O)O)CCN(Cc3cc(-c4nc5ccccc5s4)cc(OC)c3O)CC2)c1O | UV-vis spectrophotometric titration | aqueous NaCl 0.1 M | 20 µM, 25 °C, pH 3 to 11 | – | pKa3 | 8.48
COc1cc2ncnc(Oc3ccc(Nc4nccc5[nH]cc(-c6ccc(F)cc6)c(=O)c45)cc3F)c2cc1OC | – | male beagle dog, plasma | intravenous, 2 mg/kg | – | Vd | 0.69 L/kg
N#C[C@@H]1CC(F)(F)CN1C(=O)CNC(=O)c1ccnc2c(NC(=O)CCOCCOCCOCCOCCOCCOCCNC(=O)C(CCCCNC(=O)CN3CCN(CC(=O)[O-])CCN(CC(=O)[O-])CCN(CC(=O)[O-])CC3)NC(=O)CCCc3ccc(I)cc3)cccc12.[68Ga+3] (stereo partly shown) | – | human serum | 120 min, 37 °C, 68Ga-labelled | – | radiochemical stability | 97.79 ± 0.6%
CN1CCC[C@]1(C)/C=C/S(=O)(=O)NC(=O)Nc1c2c(cc3c1CCC3)CCC2 | refers to: Headache, possibly related | human | oral, 100 mg twice daily, 14 days, multiple ascending dose | – | subjects with adverse event | 0%
N#C[C@@H]1CC(F)(F)CN1C(=O)CNC(=O)c1ccnc2c(NC(=O)C(CCCCNC(=O)CCOCCOCCOCCOCCOCCOCCNC(=O)CN3CCN(CC(=O)[O-])CCN(CC(=O)[O-])CCN(CC(=O)[O-])CC3)NC(=O)CCCc3ccc(I)cc3)cccc12.[68Ga+3] (stereo partly shown) | – | PBS | 60 min, 37 °C, 68Ga-labelled | – | radiochemical stability | 99.15 ± 0.6%
CCOc1ccc(Nc2ncnc3[nH]c(/C=C/c4ccc(OC)c(OC)c4)nc23)cc1 | HPLC | solution | after 1 h light exposure | – | purity | 99.3%
O=S(=O)(N[C@H]1CCO[C@@H](C2c3ccc(F)cc3CCc3cc(F)ccc32)C1)c1ccc(OC(F)(F)F)cc1 | – | mouse | oral, 30 mg/kg, 2 h | – | brain/plasma ratio | 0.42 ± 0.27
[123I]c1ccc2nc(-c3ccc(-n4ccnn4)nc3)cn2c1 | – | male Wistar rat, liver | intravenous, 4 MBq, 5 min | – | tracer uptake | 3.5 %ID/g
CCCCN1C(=O)c2cccc3c(NCCN4CCOCC4)ccc(c23)C1=O | – | dioxane | – | – | Stokes shift | 82 nm
COc1cccc(OC)c1-c1cc(C(=O)NC2(C(=O)O)C3CC4CC(C3)CC2C4)nn1-c1ccc(C(=O)N(C)CCOCCOCCN(C)C(=O)[C@H](CCCCNC(=O)[C@H](CC(C)C)NC(=O)C2OC2C(=O)O)NC(=O)CN2CCN(CC(=O)[O-])CCN(CC(=O)[O-])CCN(CC(=O)[O-])CC2)cc1C(C)C.[177Lu+3] (mixture of isomers) | – | mouse, HT-29 xenograft, spleen | 4 h post injection | – | tissue uptake | 0.83 %ID/g
Cc1cc(-c2ccc(C(=O)[C@@H]3CCCC[C@H]3C(=O)Nc3cnn4c3C(=O)NCC4)cc2)[nH]n1 | – | human, urine | oral, 200 mg, 0-192 h | baseline: dose | cumulative recovery of radioactivity | 5.9%
CN([O-])C(=O)CN1CCN(CC(=O)N(C)[O-])CCN(Cc2ccccn2)CC1.[89Zr+4] | – | mouse, muscle | intravenous, 1 h | – | tracer uptake | 0.86 %ID/g
CC[C@H](C)[C@H](NC(=O)[C@H](Cc1ccc(O)cc1)NC(=O)[C@@H](NC(=O)[C@H](CCCNC(=N)N)NC(=O)[C@@H](N)CC(=O)O)C(C)C)C(=O)N[C@@H](Cc1c[nH]cn1)C(=O)N1CCC[C@H]1C(=O)O | LC-MS/MS | Sprague-Dawley rat, both sexes, plasma | subcutaneous, 10 mg/kg/day, day 0, 0.25 h, 15 min | – | plasma concentration | 25.6 ng/mL
COc1ccc(Nc2nc(Nc3ccc(OCCOCC[18F])cc3)ncc2Br)cc1 | – | ICR mice, S180 tumour | intravenous, 370 kBq, 60 min | baseline: tumour over muscle | uptake ratio | 1.72
O=C([O-])CN1CCN(Cc2cccc(C(=O)[O-])n2)CCN(CP(=O)([O-])[O-])CC1.[18F][Sc+2] | refers to: intact complex | phosphate-buffered saline | 4 h | – | radiochemical stability | 97%
C=C(NC(=O)c1csc(-c2nc3c(cc2O)-c2nc(cs2)C(=O)NC(C(C)O)C(=O)NC(=C(C)OC)c2nc(cs2)C(=O)NC2c4nc(cs4)C(=O)NC(COC(=O)c4c5c6c(cccc6n4O)COC(=O)C(OC4CC(C)(O)C(N(C)C)C(C)O4)C2OC5)c2nc-3cs2)n1)C(N)=O (stereo not shown) | – | ICR mice, Streptococcus pneumoniae ATCC 49169 infected, immunocompromised, blood | intravenous, 2 mg/kg/day twice daily | – | AUC(0-t) | 159 ng·h/mL
COCC1CN(C2CCN(c3cc(OC)c(Nc4ncc(Br)c(Nc5ccc6c(c5P(C)(C)=O)OCCO6)n4)cc3C)CC2)C1 | – | EGFR-mutant NSCLC patients, plasma | oral, 30 mg single dose, geometric mean | – | AUC(0-t) | 4480 ng·h/mL
O=C(Nc1cnccc1-c1ccc([18F])cc1)c1ccnc(NC(=O)C2CC2)c1 | ex vivo biodistribution, gamma counting | GSK-3β overexpressing transgenic mouse, late stage, right kidney | intravenous, 120 min post-injection, added: tariquidar 15 mg/kg iv, at least 2 h before tracer | – | mean SUV | 1.3
CC(=O)N([O-])CCCCCNC(=O)CCC(=O)N([O-])CCCCCNC(=O)CCC(=O)N([O-])CCCCCN.[89Zr+4] | radio-TLC | aqueous buffer | 3 d, pH 8.5, 37 °C, 89Zr-labelled complex, added: DTPA 100-fold excess | – | intact complex | 98.4 ± 1.7%
OCC1OC(n2cnc3c(NCc4ccc(Br)s4)ncnc32)C(O)C1O (stereo not shown) | equilibrium dialysis | human plasma | 0.05 µg/mL, 4 h, pH 7.4 | – | fraction unbound | 0.145
O=C1c2sc(-c3ccc(N4CCC(F)C4)nc3F)nc2CCN1c1cccnc1 (stereo not shown) | HPLC | rhesus monkey, plasma | intravenous, 59.92 min | – | parent fraction | 0.148

SMILES | test | system | conditions | scale | endpoint | result
Cc1nc(N)nc2c1C(=O)N[C@@H](c1ccc(F)cc1-c1cccc(O[11CH3])n1)C2 | ex vivo biodistribution | healthy mice, liver | 60 min post-injection, baseline, vehicle pre-treatment | – | tracer uptake | 13.4 ± 0.5 %ID
C/C(N)=N/C(=N\S(=O)(=O)c1ccc(C(F)(F)F)cc1)N1C[C@H](c2ccccc2)C(c2ccc(Cl)cc2)=N1 | – | male C57BL/6 mouse, plasma | intravenous, 5 mg/kg | – | Tmax | 30 min
CC(C)Cc1ccc(C(C)C(=O)N[C@@H](CCCCNC(=O)CCOCCOCCOCCOCCOCCOCCNC(=O)CN2CCN(CC(=O)[O-])CCN(CC(=O)[O-])CCN(CC(=O)[O-])CC2)C(=O)Nc2cccc3c(C(=O)NCC(=O)N4CC(F)(F)C[C@H]4C#N)ccnc23)cc1.[177Lu+3] (stereo partly shown) | – | human serum | 1 h, 37 °C, 177Lu-labelled | – | radiochemical stability | 99.1 ± 1%
CC(C)(O)c1ncc([S@](N)(=O)=NC(=O)Nc2c3c(cc4c2CCC4)CCC3)s1 | refers to: skin, subcutaneous tissue disorders | healthy human | oral, dose not given, 14 days, all active multiple doses pooled | – | subjects with TEAEs | 43%
O=C(O)CCCOc1ccc([18F])cc1-c1cc(-c2ccccc2C(F)(F)F)n(-c2ccccc2)n1 | OLINDA/EXM from mouse data | human adults, brain | – | – | absorbed dose | 4.51 µGy/MBq
CCCCN1C(=O)c2cccc3c(NCCCN4CCOCC4)ccc(c23)C1=O | – | dichloromethane | – | – | fluorescence quantum yield | 0.46
CN(O)C(=O)CCC(=O)NCCCN(CCCCN(CCCNC(=O)CCC(=O)N(C)O)C(=O)CCC(=O)N(C)O)C(=O)CCC(=O)N(C)O.[89Zr] | – | mouse, brain | 4 h | – | tracer uptake | 0.02 %ID/g
CCCCN1C(=O)c2cccc3c(NCCCCCCCCCCN4CCOCC4)ccc(c23)C1=O | – | chloroform | – | – | Stokes shift | 83 nm
C=CC(=O)Nc1cccc(Cn2ncc3cnc(Nc4cnn(CCOC)c4)nc32)c1 | – | mouse, CD-1, both sexes, whole blood | 5 µM, 60 min | – | remaining compound | 43.9%
[11CH3]N1CCC(NC(=O)c2cc(-c3c(O)cc(O)cc3Oc3ccc([N+](=O)[O-])cc3)on2)CC1 | – | healthy female Wistar rats, kidneys | intravenous, 2 min | – | standardized uptake value | 17.3 ± 0.6 g/mL
O=C(NCC1OC2CCC=CCCC2O1)c1ccc([18F])nc1 (stereo not shown) | – | healthy female BALB/c nude mice, bone | intravenous, 7.4 MBq per mouse, 5 min | – | tissue uptake | 1.5 ± 0.6 %ID/g
C=CC(=O)Nc1cc(Nc2nccc(-c3c[nH]c4ccccc34)n2)c(OC)cc1N(C)CCN(C)C | storage stability | human dried blood spot | 30 d, -80 °C, HQC level | – | recovery | 101%
O=C(Nc1cnccc1-c1ccc([18F])nc1)c1ccnc(NC(=O)C2CC2)c1 | ex vivo biodistribution, gamma counting | mouse, transgenic, GSK-3β, early stage, right kidney | intravenous, 120 min | – | SUV | 0.225
CCCCN1C(=O)c2cccc3c(NCCCCCCCCN4CCOCC4)ccc(c23)C1=O | – | dichloromethane | – | – | Stokes shift | 89 nm
C=CC(=O)Nc1cc(Nc2nccc(-c3cn(C)c4ccccc34)n2)c(OC)cc1N(C)CCNC | – | human, dried blood spots | 270 ng/mL, 30 d, room temperature, high QC level | – | remaining compound | 44.3%
CCCCN1C(=O)c2cccc3c(NCCCCCN4CCOCC4)ccc(c23)C1=O | – | toluene | – | – | Stokes shift | 75 nm
CC(C(=O)O)n1nc(Cn2cc3cc(OCC[18F])c(Cl)cc3n2)c2ccccc2c1=O (racemic) | – | rat, muscle | 30 min | – | tracer uptake | 0.05 %ID/g
CCCCN1C(=O)c2cccc3c(NCCCCN4CCOCC4)ccc(c23)C1=O | – | ethyl acetate | – | – | Stokes shift | 81 nm
CC[C@H](C)[C@@H]1NC(=O)[C@H](Cc2ccc(O)cc2)NC(=O)CCCSC[C@@H](C(=O)N(CC(=O)N[C@@H](CC(C)C)C(=O)NCC(N)=O)Cc2ccc(F)cc2)NC(=O)[C@H](CC(N)=O)NC(=O)[C@H](CCC(N)=O)NC1=O | – | healthy human females, plasma | intranasal, 50 µg single dose | – | Cmax | 0.032 ng/mL
O=C1c2sc(-c3ccc(N4CCC(CO)CC4)nc3F)nc2CCN1c1cccnc1 | – | CD1 mouse, brain | i.v., dose not given, 0.033 h | – | concentration | 781 ng/g and 782 ng/g and 690 ng/g
CNc1cc(N)c(C(N)=O)cn1 | – | Han Wistar rats, male, plasma | oral, 30 mg/kg, 0.50 h | – | plasma concentration | 24.7 µM

Repeated from above:
SMILES | test | system | conditions | scale | endpoint | result
O=C(Nc1cnccc1-c1ccc([18F])nc1)c1ccnc(NC(=O)C2CC2)c1 | ex vivo biodistribution, gamma counting | mouse, transgenic, GSK-3β, early stage, right kidney | intravenous, 120 min | – | SUV | 0.225
CCCCN1C(=O)c2cccc3c(NCCCCCCCCN4CCOCC4)ccc(c23)C1=O | – | dichloromethane | – | – | Stokes shift | 89 nm
C=CC(=O)Nc1cc(Nc2nccc(-c3cn(C)c4ccccc34)n2)c(OC)cc1N(C)CCNC | – | human, dried blood spots | 270 ng/mL, 30 d, room temperature, high QC level | – | remaining compound | 44.3%
